Assay results of several laboratories.
A part holds a random share of what one study measured.
Sequence of UniProt O95747 (whole entry, looked up): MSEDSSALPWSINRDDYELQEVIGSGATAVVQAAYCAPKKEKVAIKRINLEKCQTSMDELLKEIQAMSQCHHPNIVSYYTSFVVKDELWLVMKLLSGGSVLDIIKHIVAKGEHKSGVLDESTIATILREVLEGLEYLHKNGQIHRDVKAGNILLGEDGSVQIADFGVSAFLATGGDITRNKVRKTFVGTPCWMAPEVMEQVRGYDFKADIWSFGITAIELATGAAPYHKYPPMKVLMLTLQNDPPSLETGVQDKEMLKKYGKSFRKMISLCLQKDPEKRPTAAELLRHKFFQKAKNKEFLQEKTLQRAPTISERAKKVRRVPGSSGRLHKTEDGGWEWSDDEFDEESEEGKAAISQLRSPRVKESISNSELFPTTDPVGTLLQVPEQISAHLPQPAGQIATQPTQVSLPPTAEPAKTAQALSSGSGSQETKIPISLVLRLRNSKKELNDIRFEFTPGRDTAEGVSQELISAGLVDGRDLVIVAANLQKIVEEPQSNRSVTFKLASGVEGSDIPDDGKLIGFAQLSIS
Sequence of UniProt P05771 (whole entry, looked up): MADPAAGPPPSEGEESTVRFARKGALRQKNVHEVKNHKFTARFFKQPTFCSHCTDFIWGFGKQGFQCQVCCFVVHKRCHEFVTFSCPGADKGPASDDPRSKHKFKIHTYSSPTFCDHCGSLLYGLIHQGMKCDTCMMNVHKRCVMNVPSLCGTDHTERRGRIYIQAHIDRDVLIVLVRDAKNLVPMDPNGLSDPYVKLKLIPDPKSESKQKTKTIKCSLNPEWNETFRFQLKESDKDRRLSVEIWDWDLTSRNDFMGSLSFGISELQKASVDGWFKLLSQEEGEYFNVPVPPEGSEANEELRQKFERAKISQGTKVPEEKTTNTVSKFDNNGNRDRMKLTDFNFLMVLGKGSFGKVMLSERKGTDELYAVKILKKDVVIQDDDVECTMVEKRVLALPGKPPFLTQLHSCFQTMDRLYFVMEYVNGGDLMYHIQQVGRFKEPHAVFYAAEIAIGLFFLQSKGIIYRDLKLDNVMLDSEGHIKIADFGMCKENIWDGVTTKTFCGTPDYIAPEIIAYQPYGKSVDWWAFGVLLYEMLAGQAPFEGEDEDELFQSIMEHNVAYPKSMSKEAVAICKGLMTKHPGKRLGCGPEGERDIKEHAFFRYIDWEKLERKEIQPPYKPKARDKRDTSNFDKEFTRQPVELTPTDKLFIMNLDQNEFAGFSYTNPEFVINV
Sequence of UniProt P51955 (whole entry, looked up): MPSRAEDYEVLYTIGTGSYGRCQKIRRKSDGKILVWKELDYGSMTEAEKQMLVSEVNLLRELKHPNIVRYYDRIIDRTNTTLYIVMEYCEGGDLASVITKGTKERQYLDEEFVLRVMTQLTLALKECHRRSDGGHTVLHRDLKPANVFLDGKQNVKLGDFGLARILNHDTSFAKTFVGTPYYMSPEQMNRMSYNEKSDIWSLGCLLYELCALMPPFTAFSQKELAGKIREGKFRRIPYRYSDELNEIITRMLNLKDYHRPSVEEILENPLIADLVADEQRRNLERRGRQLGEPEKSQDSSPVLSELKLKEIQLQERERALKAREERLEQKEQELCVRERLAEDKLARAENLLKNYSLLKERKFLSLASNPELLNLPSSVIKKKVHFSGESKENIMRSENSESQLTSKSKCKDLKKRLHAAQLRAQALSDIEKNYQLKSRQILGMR
Sequence of UniProt P37173 (whole entry, looked up): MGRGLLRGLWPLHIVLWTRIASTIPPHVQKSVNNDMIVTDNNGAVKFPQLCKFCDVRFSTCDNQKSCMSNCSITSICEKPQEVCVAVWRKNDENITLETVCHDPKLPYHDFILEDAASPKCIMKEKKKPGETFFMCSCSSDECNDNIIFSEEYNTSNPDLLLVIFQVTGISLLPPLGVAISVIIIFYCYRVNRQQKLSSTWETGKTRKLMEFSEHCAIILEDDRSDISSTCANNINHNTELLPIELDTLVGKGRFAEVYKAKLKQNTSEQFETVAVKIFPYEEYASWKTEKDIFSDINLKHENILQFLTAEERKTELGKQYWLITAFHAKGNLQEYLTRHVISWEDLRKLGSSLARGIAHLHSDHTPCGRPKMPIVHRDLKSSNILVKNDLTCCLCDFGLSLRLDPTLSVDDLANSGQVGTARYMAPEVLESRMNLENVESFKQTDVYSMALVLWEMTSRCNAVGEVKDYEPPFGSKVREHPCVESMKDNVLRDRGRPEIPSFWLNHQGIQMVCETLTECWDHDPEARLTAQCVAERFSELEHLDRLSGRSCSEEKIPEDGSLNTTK
Sequence of UniProt P11802 (whole entry, looked up): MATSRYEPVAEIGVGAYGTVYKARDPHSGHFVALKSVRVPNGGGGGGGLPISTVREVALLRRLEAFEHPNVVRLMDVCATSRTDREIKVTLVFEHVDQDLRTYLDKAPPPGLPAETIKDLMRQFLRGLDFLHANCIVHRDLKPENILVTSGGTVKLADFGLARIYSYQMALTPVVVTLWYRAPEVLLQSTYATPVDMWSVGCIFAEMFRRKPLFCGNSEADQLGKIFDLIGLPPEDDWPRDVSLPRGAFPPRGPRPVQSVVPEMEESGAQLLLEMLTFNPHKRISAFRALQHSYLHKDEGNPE
Sequence of UniProt P07948 (whole entry, looked up): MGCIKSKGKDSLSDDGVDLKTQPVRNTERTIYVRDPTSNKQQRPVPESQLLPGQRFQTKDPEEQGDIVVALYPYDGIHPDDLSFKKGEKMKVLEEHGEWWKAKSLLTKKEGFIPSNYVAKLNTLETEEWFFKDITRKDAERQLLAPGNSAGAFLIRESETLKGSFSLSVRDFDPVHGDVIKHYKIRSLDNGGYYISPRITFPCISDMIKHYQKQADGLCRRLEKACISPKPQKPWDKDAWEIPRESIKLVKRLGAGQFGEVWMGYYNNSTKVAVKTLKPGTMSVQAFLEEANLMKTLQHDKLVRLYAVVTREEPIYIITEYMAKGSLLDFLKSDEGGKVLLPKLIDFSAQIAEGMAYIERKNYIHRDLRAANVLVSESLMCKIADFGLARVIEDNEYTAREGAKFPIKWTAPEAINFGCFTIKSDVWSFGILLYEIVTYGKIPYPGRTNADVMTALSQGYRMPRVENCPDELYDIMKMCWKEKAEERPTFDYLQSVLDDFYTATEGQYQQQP
Sequence of UniProt Q99759 (whole entry, looked up): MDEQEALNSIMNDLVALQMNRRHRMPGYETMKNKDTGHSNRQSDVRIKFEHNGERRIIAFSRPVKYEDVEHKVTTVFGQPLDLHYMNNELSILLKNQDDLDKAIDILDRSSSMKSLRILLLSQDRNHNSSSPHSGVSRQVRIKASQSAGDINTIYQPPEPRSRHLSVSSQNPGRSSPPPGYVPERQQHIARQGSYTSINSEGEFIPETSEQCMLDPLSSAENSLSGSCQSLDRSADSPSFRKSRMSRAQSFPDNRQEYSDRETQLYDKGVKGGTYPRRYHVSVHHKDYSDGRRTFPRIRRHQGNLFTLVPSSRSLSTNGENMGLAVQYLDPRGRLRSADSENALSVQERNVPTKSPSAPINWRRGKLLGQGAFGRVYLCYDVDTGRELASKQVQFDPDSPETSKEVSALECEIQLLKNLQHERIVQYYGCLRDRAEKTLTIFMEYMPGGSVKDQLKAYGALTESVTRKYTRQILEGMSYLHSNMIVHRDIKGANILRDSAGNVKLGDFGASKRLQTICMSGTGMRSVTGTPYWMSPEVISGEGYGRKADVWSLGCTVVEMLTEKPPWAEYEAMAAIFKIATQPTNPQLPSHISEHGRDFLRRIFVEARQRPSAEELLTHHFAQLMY
Sequence of UniProt Q13976 (whole entry, looked up): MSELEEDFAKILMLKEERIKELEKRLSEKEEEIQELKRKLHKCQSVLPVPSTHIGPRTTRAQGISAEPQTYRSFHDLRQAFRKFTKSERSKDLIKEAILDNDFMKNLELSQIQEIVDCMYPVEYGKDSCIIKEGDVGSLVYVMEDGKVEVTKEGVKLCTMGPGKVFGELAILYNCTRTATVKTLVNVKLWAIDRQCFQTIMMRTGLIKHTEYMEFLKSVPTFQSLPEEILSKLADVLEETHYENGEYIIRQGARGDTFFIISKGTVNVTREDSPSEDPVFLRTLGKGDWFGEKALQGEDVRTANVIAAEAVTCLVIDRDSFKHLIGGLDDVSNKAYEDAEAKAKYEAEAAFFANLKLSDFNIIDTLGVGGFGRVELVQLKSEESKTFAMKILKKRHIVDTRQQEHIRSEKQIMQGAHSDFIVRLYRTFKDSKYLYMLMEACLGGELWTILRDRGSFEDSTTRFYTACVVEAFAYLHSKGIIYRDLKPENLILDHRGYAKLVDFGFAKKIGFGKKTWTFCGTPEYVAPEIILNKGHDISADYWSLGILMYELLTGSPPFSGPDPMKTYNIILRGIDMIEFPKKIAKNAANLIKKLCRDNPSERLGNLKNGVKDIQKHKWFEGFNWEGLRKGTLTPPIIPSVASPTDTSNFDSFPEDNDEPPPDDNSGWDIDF

Series 1
Cell line: mouse MPNST tumor cells
Method: high-content nuclear imaging
Measured: cell number
Tested at: 10 µM
Time: 12 h
Setting: mean of 2 replicates
Baseline: plate mean
Direction: higher = more cells
| Compound | nuclei count |
| --- | --- |
| COc1ccc(Nc2ncnc3ccc(OC)cc23)cc1 | 1.49 z-score |
| O=S(=O)(O)c1cc(O)ccc1O | 0.786 z-score |
| C=CCOc1ccccc1OCC(O)CNC(C)C (centres unmarked) | 1.04 z-score |
| Cc1cc(=O)oc2cc(O)ccc12 | 1.5 z-score |
| O=C(O)[C@H]1/C(=C/CO)O[C@@H]2CC(=O)N21 | 1.08 z-score |
| Nc1ncnc2c1ncn2[C@@H]1O[C@H](CO)[C@@H](O)[C@H]1O | -0.0444 z-score |
| CN(C)CCCN1c2ccccc2Sc2ccc(C(F)(F)F)cc21 | -5.43 z-score |
| Cc1cccc(Nc2ccncc2S(=O)(=O)NC(=O)NC(C)C)c1 | 0.731 z-score |
| CCN(CC)C(=O)c1ccc(Nc2nc(OCC3CCCCC3)c3[nH]cnc3n2)cc1 | -2.76 z-score |
| Cc1cnc(NC(=O)Nc2cc(Br)c(C)cc2OC[C@@H]2CNCCO2)cn1 | -5.05 z-score |
| Nc1cc(C(Cl)=C(Cl)Cl)c(S(N)(=O)=O)cc1S(N)(=O)=O | 0.866 z-score |

Series 2
Cell line: A-375
Tested at: 100 µM
Time: 60 h
| SMILES | viability [%] |
| --- | --- |
| O=C1Nc2ccc(Cl)cc2[C@@](C#CC2CC2)(C(F)(F)F)O1 | 5.42 |
| O=C(O)c1ccc[n+]([O-])c1 | 104 |
| Cc1ccc(S(=O)(=O)NC(=O)NN2CC3CCC[C@@H]3C2)cc1 (stereo in doubt) | 56.3 |
| CC[C@H](C)C(=O)O[C@H]1C[C@H](O)C=C2C=C[C@H](C)[C@H](CC[C@@H](O)C[C@@H](O)CC(=O)O)[C@H]21 | 99.8 |

Series 3
SMILES: Cc1nc2cc3nc(-c4cccs4)cnc3cc2n1C
Observed: enzyme activity
Action: inhibitor
Tested at: 0.5 µM
Baseline: control
| target | remaining activity [%] |
| --- | --- |
| TGFBR1 (Homo sapiens, UniProt P36897) | 98.7 |
| CAMK2D (Homo sapiens, UniProt Q13557) | 100 |
| STK10 (Homo sapiens, UniProt O94804) | 94.7 |
| CAMKK2 (Homo sapiens, UniProt Q96RR4) | 112 |
| MAP3K3 (Homo sapiens, UniProt Q99759) | 117 |
| CHEK2 (Homo sapiens, UniProt O96017) | 94.6 |
| NEK2 (Homo sapiens, UniProt P51955) | 97 |
| Tyrosine-protein kinase Lyn, isoform B (LYN, Homo sapiens, UniProt P07948) | 117 |
| cGMP-dependent protein kinase 1, isoform beta (PRKG1, Homo sapiens, UniProt Q13976) | 98.5 |
| STK39 (Homo sapiens, UniProt Q9UEW8) | 79.8 |
| PRKACA (Homo sapiens, UniProt P17612) | 100 |
| DAPK2 (Homo sapiens, UniProt Q9UIK4) | 94.1 |
| TGFBR2 (Homo sapiens, UniProt P37173) | 89.2 |
| Cyclin-dependent kinase 4, with cyclin D1 (CDK4, Homo sapiens, UniProt P11802) | 108 |
| Protein kinase C beta type, isoform beta-I (PRKCB, Homo sapiens, UniProt P05771) | 107 |
| OXSR1 (Homo sapiens, UniProt O95747) | 99.4 |
| IKBKE (Homo sapiens, UniProt Q14164) | 89.8 |
| DAPK1 (Homo sapiens, UniProt P53355) | 99.5 |
| GRK3 (Homo sapiens, UniProt P35626) | 99.2 |
| PRKCA (Homo sapiens, UniProt P17252) | 74.7 |
| Cyclin-dependent kinase 5, with p25 (CDK5, Homo sapiens, UniProt Q00535) | 99.3 |
| MAPK9 (Homo sapiens, UniProt P45984) | 74.7 |
| IKBKB (Homo sapiens, UniProt O14920) | 103 |

Series 4
Cell line: normal-adjacent organoid sample F
Method: CellTiter-Glo
Tested at: 0.1 µM
Setting: replicate mean
Baseline: DMSO
| SMILES | viability [%] |
| --- | --- |
| CCOC(=O)c1cc2cc(-c3cc(C(=O)NCc4ccc(C(=O)O)cc4)nn3C)ccc2[nH]1 | 110 |
| Cc1ccc(-c2cnc([C@@]3(O)CC[C@H](C(=O)O)C(C)(C)C3)s2)cc1Nc1cccc(C(F)(F)F)n1 | 101 |
| O=C(NCCCC1CCCCC1)c1ccc(CNC(=O)c2cnn(-c3ccccc3)c2C(F)(F)F)cc1 | 107 |
| Cc1c[nH]c2nccc(Oc3c(F)cc(Nc4cc(Cl)nc(N)n4)cc3F)c12 | 113 |
| O=C(N[C@H]1CCCCC/C=C\C2C[C@@]2(C(=O)O)NC(=O)[C@@H]2C[C@@H](Oc3ccncc3)CN2C1=O)OC1CCCC1 (some centres unmarked) | 95.4 |
| CNCc1ccccc1-c1csc([C@H](C)Nc2nc(C)nc3cc(OC)c(OC)cc23)c1 | 113 |
| O[C@]1(C(F)(F)F)CCCC[C@H]1Nc1ccc(F)cc1 | 99.3 |
| CCCCN(CCCC)C(=O)CN1C[C@H](c2cc(OC)c3c(c2)OCO3)[C@@H](C(=O)O)[C@@H]1CC(C)(C)CCC | 112 |
| Nc1c(C(=O)NCc2ccc(C(=O)NCCCC3CCCCC3)cc2)cnn1-c1ccccc1 | 118 |
| CNC(=O)c1ccc(Nc2ncc(C(F)(F)F)c(NCc3nccnc3N(C)S(C)(=O)=O)n2)cc1 | 103 |
| COCCOc1nc(-c2ccc(Cl)nc2)nc2c1CN(C(=O)c1ncn3ccccc13)CC2 | 87.4 |
| O=S(=O)(NC1CCC(c2cc(F)ccc2F)(S(=O)(=O)c2ccc(Cl)cc2)CC1)C(F)(F)F (centres unmarked) | 105 |
| O=C(O)[C@H]1[C@H](Cn2nnc3ccccc3c2=O)CC[C@@H]1C(=O)c1ccc(OCCC2CCOCC2)cc1 | 114 |
| Cc1nc(Cc2cccc(C(F)(F)F)c2)sc1-c1ccc(C(N)=O)nc1 | 110 |
| CCCOc1ccc([C@H]2[C@H](C(=O)O)[C@@H](c3ccc4c(c3)OCO4)CN2CC(=O)Nc2c(CC)cccc2CC)cc1 | 125 |

For quick reference, copied from above (series 1):
| Compound | nuclei count |
| --- | --- |
| Cc1cc(=O)oc2cc(O)ccc12 | 1.5 z-score |
| O=C(O)[C@H]1/C(=C/CO)O[C@@H]2CC(=O)N21 | 1.08 z-score |
| Nc1ncnc2c1ncn2[C@@H]1O[C@H](CO)[C@@H](O)[C@H]1O | -0.0444 z-score |
| CN(C)CCCN1c2ccccc2Sc2ccc(C(F)(F)F)cc21 | -5.43 z-score |
| Cc1cccc(Nc2ccncc2S(=O)(=O)NC(=O)NC(C)C)c1 | 0.731 z-score |
